{"data": "Assay results gathered from unrelated publications", "method": "steady-state kinetics", "B1": "BaiA1 (Clostridium scindens, UniProt P07914); chain MKLVQDKITIITGGTRGIGFAAAKLFIENGAKVSIFGETQEEVDTALAQLKELYPEEEVLGFAPDLTSRDAVMAAVGTVAQKYGRLDVMINNAGITMNSVFSRVSEEDFKNIMDINVNGVFNGAWSAYQCMKDAKQGVIINTASVTGIYGSLSGIGYPTSKAGVIGLTHGLGREIIRKNIRVVGVAPGVVDTDMTKGLPPEILEDYLKTLPMKRMLKPEEIANVYLFLASDLASGITATTISVDGAYRP", "B2": "MSS116 T307A (Saccharomyces cerevisiae, UniProt P15424); chain LYNDGNRDQRNFGRNQRNNNSNRYRNSRFNSRPRTRSREDDDEVHFDKTTFSKLIHVPKEDNSKEVTLDSLLEEGVLDKEIHKAITRMEFPGLTPVQQKTIKPILSSEDHDVIARAKTGTGKTFAFLIPIFQHLINTKFDSQYMVKAVIVAPTRDLALQIEAEVKKIHDMNYGLKKYACVSLVGGTDFRAAMNKMNKLRPNIVIATPGRLIDVLEKYSNKFFRFVDYKVLDEADRLLEIGFRDDLETISGILNEKNSKSADNIKTLLFSAALDDKVQKLANNIMNKKECLFLDTVDKNEPEAHERIDQSVVISEKFANSIFAAVEHIKKQIKERDSNYKAIIFAPTVKFTSFLCSILKNEFKKDLPILEFHGKITQNKRTSLVKRFKKDESGILVCTDVGARGMDFPNVHEVLQIGVPSELANYIHRIGRTARSGKEGSSVLFICKDELPFVRELEDAKNIVIAKQEKYEPSEEIKSEVLEAVTEEPEDISDIVISLISSYRSCIKEYRFSERRILPEIASTYGVLLNDPQLKIPVSRRFLDKLGLSRSPIGKAMFEIRDYSSRDGNNKSYDYDDDSEISFRGNKNYNNRSQNRDYDDEPFRRSNNNRRSFSRSNDKNNYSSRNSNIY", "B3": "vioC (Streptomyces vinaceus, UniProt Q6WZB0); chain MTESPTTHHGAAPPDSVATPVRPWSEFRLTPAEAAAAAALAARCAQRYDETDGPEFLLDAPVIAHELPRRLRTFMARARLDAWPHALVVRGNPVDDAALGSTPVHWRTARTPGSRPLSFLLMLYAGLLGDVFGWATQQDGRVVTDVLPIKGGEHTLVSSSSRQELGWHTEDAFSPYRADYVGLLSLRNPDGVATTLAGVPLDDLDERTLDVLFQERFLIRPDDSHLQVNNSTAQQGRVEFEGIAQAADRPEPVAILTGHRAAPHLRVDGDFSAPAEGDEEAAAALGTLRKLIDASLYELVLDQGDVAFIDNRRAVHGRRAFQPRYDGRDRWLKRINITRDLHRSRKAWAGDSRVLGQR", "B4": "enzyme (Vitis vinifera, UniProt F6HSW4); chain MAVDSGLSSPLGPPACEKDAKALQFIEEMTRNPDQVQEKILAEILSQNGETEYLQRFKLAGATDRDTFKSKVPVVTYEDLQPDIQRIANGDRSPILSSHPISEFLTSSGTSAGERKLMPTIHEEWDRRQKLYSLLMPVMNLYVPGLDKGKGLYFLFVKSETKTPSGLVARPVLTGYYRSEHFKKRPYDPYNVYTSPDEAILCVDSFQSMYAQMLCGLLMHKEVLRVGAVFASGLLRAIRFLQVHWQQLAHDISTGILNPKITDPSVREGLAGILKPSQELADFIIQECSGGNWERIITRIWPNTKYLDVIVTGAMAQYIPTLDYFSGGIPLACTMYASSECYFGLNLKPMSKPSEVSYTIMPNMGYFEFLPHDPSAPPLSRDSPPRLVDLADVEVGKEYELVITTYAGLCRYRVGDILQVTGFHNSAPQFQFIRRKNVLLSIDSDKTDEAELQKAVENASLLLREFNTSVVEYTSFADTKTIPGHYVIYWELLVKDPSNSPTDTVLKQCCLAMEESLNTVYRQGRVADNSIGPLEIRVVKSGTFEELMDYAISRGASINQYKVPRCVNFTPIMELLDSRVLSTYFSPAAPHWTPERRRTD", "B5": "ribK (UniProt H2C8H2); chain MSEECLIAKIVYLSNKGSEVTQQTLAEELKMSQQTISRKLRELEERSLIKRSLSKEGEVIRVTENGEKLLEECLSVLKTAIMTSHLLIIRGRVISGLGEGRLFLTMPYYVESFKKFLGFEPYPGTLNLAIYDRESLENRLALDTSKSINIPEYREQNRVLGGVRAFPASINGLRPAAVVFPLRSVHPKSIIEVISPYHLRKELNLNDGDEVTVEAYA", "B6": "UGT1A9 (Homo sapiens, UniProt O60656); chain GKLLVVPMDGSHWFTMRSVVEKLILRGHEVVVVMPEVSWQLGRSLNCTVKTYSTSYTLEDLDREFKAFAHAQWKAQVRSIYSLLMGSYNDIFDLFFSNCRSLFKDKKLVEYLKESSFDAVFLDPFDNCGLIVAKYFSLPSVVFARGILCHYLEEGAQCPAPLSYVPRILLGFSDAMTFKERVRNHIMHLEEHLLCHRFFKNALEIASEILQTPVTEYDLYSHTSIWLLRTDFVLDYPKPVMPNMIFIGGINCHQGKPLPMEFEAYINASGEHGIVVFSLGSMVSEIPEKKAMAIADALGKIPQTVLWRYTGTRPSNLANNTILVKWLPQNDLLGHPMTRAFITHAGSHGVYESICNGVPMVMMPLFGDQMDNAKRMETKGAGVTLNVLEMTSEDLENALKAVINDKSYKENIMRLSSLHKDRPVEPLDLAVFWVEFVMRHKGAPHLRPAAHDLTWYQYHSLDVIGFLLAVVLTVAFITFKCCAYGYRKCLGKKGRVKKAHKSKTH", "B7": "protein (Streptomyces coelicolor, UniProt P16544); chain MATQDSEVALVTGATSGIGLEIARRLGKEGLRVFVCARGEEGLRTTLKELREAGVEADGRTCDVRSVPEIEALVAAVVERYGPVDVLVNNAGRPGGGATAELADELWLDVVETNLTGVFRVTKQVLKAGGMLERGTGRIVNIASTGGKQGVVHAAPYSASKHGVVGFTKALGLELARTGITVNAVCPGFVETPMAASVREHYSDIWEVSTEEAFDRITARVPIGRYVQPSEVAEMVAYLIGPGAAAVTAQALNVCGGLGNY", "B8": "gapN (Streptococcus mutans, UniProt Q59931); chain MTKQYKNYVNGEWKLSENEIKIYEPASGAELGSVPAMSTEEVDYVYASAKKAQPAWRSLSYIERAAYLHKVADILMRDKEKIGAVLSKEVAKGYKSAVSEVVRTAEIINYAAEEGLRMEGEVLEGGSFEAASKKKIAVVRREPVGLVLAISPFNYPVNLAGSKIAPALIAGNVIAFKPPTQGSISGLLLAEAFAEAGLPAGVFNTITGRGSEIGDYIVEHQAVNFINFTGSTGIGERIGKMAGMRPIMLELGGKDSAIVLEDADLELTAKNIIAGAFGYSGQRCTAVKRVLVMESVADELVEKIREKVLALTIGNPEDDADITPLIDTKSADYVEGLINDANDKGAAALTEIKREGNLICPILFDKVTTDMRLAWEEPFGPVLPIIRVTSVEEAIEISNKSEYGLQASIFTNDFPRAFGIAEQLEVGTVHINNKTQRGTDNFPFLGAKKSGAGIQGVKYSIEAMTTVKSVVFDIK", "B9": "ZDHHC20 (Homo sapiens, UniProt Q5W0Z9); chain MAPWTLWRCCQRVVGWVPVLFITFVVVWSYYAYVVELCVFTIFGNEENGKTVVYLVAFHLFFVMFVWSYWMTIFTSPASPSKEFYLSNSEKERYEKEFSQERQQEILRRAARALPIYTTSASKTIRYCEKCQLIKPDRAHHCSACDSCILKMDHHCPWVNNCVGFSNYKFFLLFLLYSLLYCLFVAATVLEYFIKFWTNELTDTRAKFHVLFLFFVSAMFFISVLSLFSYHCWLVGKNRTTIESFRAPTFSYGPDGNGFSLGCSKNWRQVFGDEKKYWLLPIFSSLGDGCSFPTRLVGMDPEQASVTNQNEYARSSGSNQPFPIKPLSESKNRLLDSESQWLENGAEEGIVKSGTNNHVTVAIEN", "note": "Lines come from different studies, so protocols differ.", "UniProt Q9LUE2, sequence (whole entry, looked up)": "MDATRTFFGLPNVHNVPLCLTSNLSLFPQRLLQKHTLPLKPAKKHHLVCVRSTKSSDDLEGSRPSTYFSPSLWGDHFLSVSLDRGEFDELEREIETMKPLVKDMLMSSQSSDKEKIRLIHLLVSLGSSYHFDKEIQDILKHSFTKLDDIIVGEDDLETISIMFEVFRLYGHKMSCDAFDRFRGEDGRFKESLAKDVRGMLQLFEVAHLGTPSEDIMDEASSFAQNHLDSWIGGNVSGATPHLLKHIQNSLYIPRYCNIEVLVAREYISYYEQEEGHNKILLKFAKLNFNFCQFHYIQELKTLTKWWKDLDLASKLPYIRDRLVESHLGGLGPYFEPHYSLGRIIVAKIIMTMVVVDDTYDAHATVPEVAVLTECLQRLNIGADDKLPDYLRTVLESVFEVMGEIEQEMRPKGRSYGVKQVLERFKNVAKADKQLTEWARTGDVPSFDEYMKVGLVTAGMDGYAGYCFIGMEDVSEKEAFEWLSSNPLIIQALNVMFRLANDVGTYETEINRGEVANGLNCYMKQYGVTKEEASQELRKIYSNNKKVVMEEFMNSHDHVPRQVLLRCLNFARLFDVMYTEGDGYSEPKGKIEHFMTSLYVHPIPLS", "UniProt Q11203, sequence (whole entry, looked up)": "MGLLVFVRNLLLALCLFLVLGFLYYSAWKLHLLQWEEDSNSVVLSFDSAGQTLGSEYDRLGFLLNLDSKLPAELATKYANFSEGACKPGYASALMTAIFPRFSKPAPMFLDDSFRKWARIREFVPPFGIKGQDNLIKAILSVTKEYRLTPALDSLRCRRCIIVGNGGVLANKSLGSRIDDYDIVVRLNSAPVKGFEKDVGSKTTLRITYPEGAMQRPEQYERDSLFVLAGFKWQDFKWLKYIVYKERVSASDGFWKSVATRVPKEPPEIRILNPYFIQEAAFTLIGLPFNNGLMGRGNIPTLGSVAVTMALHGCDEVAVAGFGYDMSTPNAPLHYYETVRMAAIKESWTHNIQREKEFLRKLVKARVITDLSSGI", "UniProt P42588, sequence (whole entry, looked up)": "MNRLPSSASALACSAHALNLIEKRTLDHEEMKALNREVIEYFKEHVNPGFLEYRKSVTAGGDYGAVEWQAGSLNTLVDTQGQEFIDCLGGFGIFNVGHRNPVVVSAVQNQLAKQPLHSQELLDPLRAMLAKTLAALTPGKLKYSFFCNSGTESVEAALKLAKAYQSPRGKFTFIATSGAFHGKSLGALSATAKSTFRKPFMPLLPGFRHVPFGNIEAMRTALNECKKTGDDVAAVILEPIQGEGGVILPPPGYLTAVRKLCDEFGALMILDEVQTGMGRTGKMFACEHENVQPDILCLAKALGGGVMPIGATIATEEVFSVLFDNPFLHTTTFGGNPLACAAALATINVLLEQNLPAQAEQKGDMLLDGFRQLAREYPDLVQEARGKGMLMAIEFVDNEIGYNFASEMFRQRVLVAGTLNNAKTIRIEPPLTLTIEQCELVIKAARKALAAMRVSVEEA", "UniProt A0A120HUS7, sequence (whole entry, looked up)": "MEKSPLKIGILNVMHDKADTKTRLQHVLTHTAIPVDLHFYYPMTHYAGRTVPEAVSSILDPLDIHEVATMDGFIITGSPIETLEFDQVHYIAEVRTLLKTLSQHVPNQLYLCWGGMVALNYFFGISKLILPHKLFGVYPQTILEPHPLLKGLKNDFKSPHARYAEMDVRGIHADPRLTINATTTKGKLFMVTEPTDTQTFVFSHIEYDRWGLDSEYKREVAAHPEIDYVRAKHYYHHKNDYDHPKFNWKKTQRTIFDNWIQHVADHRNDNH", "UniProt Q9NP58, sequence (whole entry, looked up)": "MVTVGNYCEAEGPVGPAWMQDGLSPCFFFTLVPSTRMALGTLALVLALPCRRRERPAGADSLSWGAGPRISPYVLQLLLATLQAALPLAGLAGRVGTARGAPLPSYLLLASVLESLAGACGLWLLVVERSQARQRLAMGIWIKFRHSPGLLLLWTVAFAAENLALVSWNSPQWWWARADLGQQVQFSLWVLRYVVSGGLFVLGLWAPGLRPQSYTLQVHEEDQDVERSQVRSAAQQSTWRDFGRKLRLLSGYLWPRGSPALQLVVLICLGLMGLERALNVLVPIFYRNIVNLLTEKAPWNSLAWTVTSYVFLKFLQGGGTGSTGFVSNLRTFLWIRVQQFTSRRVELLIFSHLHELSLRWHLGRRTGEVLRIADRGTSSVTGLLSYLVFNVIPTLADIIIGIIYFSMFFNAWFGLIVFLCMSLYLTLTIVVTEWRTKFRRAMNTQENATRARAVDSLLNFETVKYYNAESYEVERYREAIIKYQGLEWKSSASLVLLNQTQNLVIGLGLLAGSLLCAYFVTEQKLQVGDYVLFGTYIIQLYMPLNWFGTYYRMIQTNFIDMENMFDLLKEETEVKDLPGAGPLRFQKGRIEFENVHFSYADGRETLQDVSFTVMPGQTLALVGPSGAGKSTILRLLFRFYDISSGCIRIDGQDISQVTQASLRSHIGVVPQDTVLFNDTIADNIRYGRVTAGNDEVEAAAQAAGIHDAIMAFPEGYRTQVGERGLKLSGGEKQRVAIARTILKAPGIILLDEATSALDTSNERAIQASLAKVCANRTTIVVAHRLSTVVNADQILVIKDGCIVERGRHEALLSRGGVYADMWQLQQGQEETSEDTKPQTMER"}
{"Molecule": "B1 (BaiA1)", "substrate": "C[C@H](CCC(=O)SCCNC(=O)CCNC(=O)[C@H](O)C(C)(C)COP(=O)(O)OP(=O)(O)OC[C@H]1O[C@@H](n2cnc3c(N)ncnc32)[C@H](O)[C@@H]1OP(=O)(O)O)[C@H]1CC[C@H]2[C@@H]3[C@H](O)C[C@@H]4C[C@H](O)CC[C@]4(C)[C@H]3C[C@H](O)[C@]12C", "conditions": "pH 8.7, 37 °C, with: NAD+", "Km [µM]": 106}
{"Molecule": "B2 (MSS116 T307A)", "substrate": "Nc1ncnc2c1ncn2[C@@H]1O[C@H](COP(=O)(O)OP(=O)(O)OP(=O)(O)O)[C@@H](O)[C@H]1O", "conditions": "pH 7.5, 37 °C, with: ATP", "Km [µM]": 165}
{"Molecule": "enzyme (Mortierella alpina, UniProt U5Y3C6)", "substrate": "CCCCCC/C=C\\CCCCCCCC(=O)SCCNC(=O)CCNC(=O)[C@H](O)C(C)(C)COP(=O)(O)OP(=O)(O)OC[C@H]1O[C@@H](n2cnc3c(N)ncnc32)[C@H](O)[C@@H]1OP(=O)(O)O", "conditions": "pH 7.5, 28 °C", "Km [µM]": 3.7}
{"Molecule": "B3 (vioC)", "substrate": "N=C(N)NOCC[C@H](N)C(=O)O", "conditions": "pH 8, 30 °C, with: alpha-ketoglutarate 1.0 mM", "Km [µM]": 1160}
{"Molecule": "B4 (enzyme)", "substrate": "O=C(O)COc1nc2ccccc2s1", "conditions": "pH 8.6, 25 °C", "Km [µM]": 565}
{"Molecule": "enzyme (Lacticaseibacillus casei, UniProt A0A120HUS7)", "substrate": "CC(=O)SCCNC(=O)CCNC(=O)[C@H](O)C(C)(C)COP(=O)(O)OP(=O)(O)OC[C@H]1O[C@@H](n2cnc3c(N)ncnc32)[C@H](O)[C@@H]1OP(=O)(O)O", "conditions": "pH 7.4, 25 °C", "Km [µM]": 21}
{"Molecule": "B5 (ribK)", "substrate": "Cc1cc2nc3c(=O)[nH]c(=O)nc-3n(C[C@H](O)[C@H](O)[C@H](O)CO)c2cc1C", "conditions": "pH 8, 60 °C, apparent", "Km [µM]": 90}
{"Molecule": "CT1526 (Chlorobium tepidum, UniProt Q8KC98)", "substrate": "Nc1nc2c(ncn2[C@@H]2O[C@H](COP(=O)(O)OP(=O)(O)OP(=O)(O)O)[C@@H](O)[C@H]2O)c(=O)[nH]1", "conditions": "pH 7.5, 25 °C, NaCl 150 mM, no nanobody", "Km [µM]": 18}
{"Molecule": "B6 (UGT1A9)", "substrate": "O=c1cc(-c2cccc(O)c2)oc2cc(O)ccc12", "conditions": "pH 7.4, 37 °C", "Km [µM]": 29.6}
{"Molecule": "B7 (protein)", "substrate": "O[C@H]1CCCc2ccccc21", "conditions": "pH 7.4, phosphate 400 mM, NADPH 250 µM printed, with: NADP+, reverse reaction", "Km [µM]": 6910}
{"Molecule": "LovD A190T/A86V/C40A/C60N/D12G/G275S/H161Y/K26E/L361M/V334D (Aspergillus terreus)", "substrate": "CCC(C)(C)C(=O)SCCC(=O)OC", "conditions": "25 °C, 10% DMSO, with: 2 mM MJA", "Km [µM]": 630}
{"Molecule": "B8 (gapN)", "substrate": "NC(=O)c1ccc[n+]([C@@H]2O[C@H](COP(=O)(O)OP(=O)(O)OC[C@H]3O[C@@H](n4cnc5c(N)ncnc54)[C@H](OP(=O)(O)O)[C@@H]3O)[C@@H](O)[C@H]2O)c1", "conditions": "pH 8, racemic G3P, cofactor varied, with: NADP+", "Km [µM]": 22}
{"Molecule": "ABCB6 (Homo sapiens, UniProt Q9NP58)", "substrate": "C=CC1=C(C)c2cc3[nH]c(cc4nc(cc5[nH]c(cc1n2)c(C)c5CCC(=O)O)C(CCC(=O)O)=C4C)c(C)c3C=C", "conditions": "pH 8, 37 °C", "Km [µM]": 4.5}
{"Molecule": "B9 (ZDHHC20)", "substrate": "CCCCCCCCCCCCCCCC(=O)SCCNC(=O)CCNC(=O)[C@H](O)C(C)(C)COP(=O)(O)OP(=O)(O)OC[C@H]1O[C@@H](n2cnc3c(N)ncnc32)[C@H](O)[C@@H]1OP(=O)(O)O", "conditions": "pH 6.5, 30 °C, NaCl 50 mM", "Km [µM]": 0.58}
{"Molecule": "ST3GAL3 (Homo sapiens, UniProt Q11203)", "substrate": "CC(=O)N[C@H]1[C@H](O[C@H]2[C@@H](O)[C@@H](CO)O[C@@H](Oc3ccc([N+](=O)[O-])cc3)[C@@H]2O)O[C@H](CO)[C@@H](O[C@@H]2O[C@H](CO)[C@H](O)[C@H](O)[C@H]2O)[C@@H]1O", "conditions": "pH 6, with: CMP-Neu5Ac", "Km [µM]": 830}
{"Molecule": "patA (Escherichia coli, UniProt P42588)", "substrate": "O=C(O)CCC(=O)C(=O)O", "conditions": "pH 9, 37 °C", "Km [µM]": 19000}
{"Molecule": "AtTPS18 (Arabidopsis thaliana, UniProt Q9LUE2)", "substrate": "CC(C)=CCC/C(C)=C/CC/C(C)=C/CC/C(C)=C/CC/C(C)=C/COP(=O)(O)OP(=O)(O)O", "conditions": "pH 7.5, 30 °C, product C7 measured, with: Mg2+ 10 mM", "Km [µM]": 4.79}
{"note": "For quick reference, copied from above:"}
{"Molecule": "B9 (ZDHHC20)", "substrate": "CCCCCCCCCCCCCCCC(=O)SCCNC(=O)CCNC(=O)[C@H](O)C(C)(C)COP(=O)(O)OP(=O)(O)OC[C@H]1O[C@@H](n2cnc3c(N)ncnc32)[C@H](O)[C@@H]1OP(=O)(O)O", "conditions": "pH 6.5, 30 °C, NaCl 50 mM", "Km [µM]": 0.58}
{"Molecule": "ST3GAL3 (Homo sapiens, UniProt Q11203)", "substrate": "CC(=O)N[C@H]1[C@H](O[C@H]2[C@@H](O)[C@@H](CO)O[C@@H](Oc3ccc([N+](=O)[O-])cc3)[C@@H]2O)O[C@H](CO)[C@@H](O[C@@H]2O[C@H](CO)[C@H](O)[C@H](O)[C@H]2O)[C@@H]1O", "conditions": "pH 6, with: CMP-Neu5Ac", "Km [µM]": 830}
